Experimental data of several laboratories.
Lines come from different studies, so protocols differ. Several values in a cell are separate wells, animals, samples, runs or records. ± gives the spread as reported. Converted amounts (≈) assume the structure as drawn.
Chain of UniProt Q9C0E2 (whole entry, looked up): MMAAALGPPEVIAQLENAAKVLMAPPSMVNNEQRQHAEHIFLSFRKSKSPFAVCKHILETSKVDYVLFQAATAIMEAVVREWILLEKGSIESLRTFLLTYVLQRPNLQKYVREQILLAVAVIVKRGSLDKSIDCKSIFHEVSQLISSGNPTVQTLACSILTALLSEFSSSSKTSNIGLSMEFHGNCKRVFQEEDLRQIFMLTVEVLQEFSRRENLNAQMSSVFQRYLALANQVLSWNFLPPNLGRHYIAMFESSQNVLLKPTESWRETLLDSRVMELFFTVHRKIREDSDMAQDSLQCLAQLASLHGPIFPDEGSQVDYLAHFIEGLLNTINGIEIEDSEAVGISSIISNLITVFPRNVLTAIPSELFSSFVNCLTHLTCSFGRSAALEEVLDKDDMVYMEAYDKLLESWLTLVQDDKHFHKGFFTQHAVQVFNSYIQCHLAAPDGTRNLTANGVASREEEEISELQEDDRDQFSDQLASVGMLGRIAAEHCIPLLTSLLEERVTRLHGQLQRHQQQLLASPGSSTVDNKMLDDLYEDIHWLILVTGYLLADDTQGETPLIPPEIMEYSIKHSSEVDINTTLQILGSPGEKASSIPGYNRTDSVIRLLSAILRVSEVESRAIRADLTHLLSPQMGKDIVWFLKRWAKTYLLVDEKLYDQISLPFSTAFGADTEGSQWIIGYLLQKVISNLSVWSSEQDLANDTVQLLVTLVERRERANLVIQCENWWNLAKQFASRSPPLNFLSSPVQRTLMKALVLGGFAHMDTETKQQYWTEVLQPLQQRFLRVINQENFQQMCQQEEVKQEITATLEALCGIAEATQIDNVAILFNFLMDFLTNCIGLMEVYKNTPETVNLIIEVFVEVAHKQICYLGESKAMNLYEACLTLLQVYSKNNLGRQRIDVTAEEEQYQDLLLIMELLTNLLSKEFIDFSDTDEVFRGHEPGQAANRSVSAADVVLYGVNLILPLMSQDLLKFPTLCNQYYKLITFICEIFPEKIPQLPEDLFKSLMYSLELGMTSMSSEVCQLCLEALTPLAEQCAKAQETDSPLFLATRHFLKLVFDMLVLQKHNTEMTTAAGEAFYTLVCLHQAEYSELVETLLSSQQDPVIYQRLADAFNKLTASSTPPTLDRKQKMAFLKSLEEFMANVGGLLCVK
Chain of UniProt Q9NWZ3 (whole entry, looked up): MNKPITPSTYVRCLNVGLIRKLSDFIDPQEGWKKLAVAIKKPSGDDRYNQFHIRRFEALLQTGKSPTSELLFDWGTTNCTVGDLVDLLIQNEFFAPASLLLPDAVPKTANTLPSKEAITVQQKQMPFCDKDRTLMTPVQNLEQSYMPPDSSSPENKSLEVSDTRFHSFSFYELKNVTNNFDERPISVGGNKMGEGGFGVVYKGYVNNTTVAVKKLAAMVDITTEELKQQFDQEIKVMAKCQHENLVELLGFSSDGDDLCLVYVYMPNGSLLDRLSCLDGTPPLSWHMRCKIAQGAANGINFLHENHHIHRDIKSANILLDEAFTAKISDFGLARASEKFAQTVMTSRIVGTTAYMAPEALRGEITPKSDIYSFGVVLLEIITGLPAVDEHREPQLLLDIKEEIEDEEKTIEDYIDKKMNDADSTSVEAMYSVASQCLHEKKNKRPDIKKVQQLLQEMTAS

NC(=O)c1ncn([C@@H]2O[C@H](CO)[C@@H](O)[C@H]2O)n1
EC50 (Influenza B virus; MDCK): 4800 nM

CCC(CC)COC(=O)[C@H](C)N[P@](=O)(OC[C@H]1O[C@@](C#N)(c2ccc3c(N)ncnn23)[C@H](O)[C@@H]1O)Oc1ccccc1
apoptosis (respiratory syncytial virus; RSV-infected cells; concentration not given): decreased

CO[C@H]1/C=C/O[C@@]2(C)Oc3c(C)c(O)c4c(c3C2=O)C2=NC3(CCN(CCn5c([N+](=O)[O-])cnc5C)CC3)NC2=C(NC(=O)/C(C)=C\C=C\[C@H](C)[C@H](O)[C@@H](C)[C@@H](O)[C@@H](C)[C@H](OC(C)=O)[C@@H]1C)C4=O
MIC (Clostridioides difficile; agar dilution; fluoroquinolone-resistant gyrA D71Y T82A): ≤ 2 ng/mL

O=C(O)c1cnccn1
MIC50 (Mycobacterium bovis; BCG ATCC 35734; 120 h): 800 µM (≈ 99.3 µg/mL)

CC[C@H](C)[C@@H]1NC(=O)[C@@H]2CCCN2C(=O)[C@H](CC(C)C)NC(=O)[C@H](CC(C)C)NC(=O)CNC(=O)[C@@H](NC(=O)[C@@H](NC(=O)[C@H](CC(=O)O)NC(=O)CNC(=O)[C@@H](NC(=O)[C@H](C)NC(=O)CNC(=O)[C@H](CCCCN)NC(=O)[C@H](CC(C)C)NC(=O)[C@H](CC(C)C)NC(=O)[C@H](CCCCN)NC(=O)CNC(=O)[C@@H](NC(=O)[C@@H](N)CC(C)C)C(C)C)C(C)C)C(C)C)CSSC[C@@H](C(=O)O)NC1=O
log2 fold change (RNA-seq, item: Casp4; mouse, traumatic brain injury model, frontal cortex and hippocampus; dose not given; relative to: TBI alone): 1.58

CC(C)NC(=O)N1CC(=O)N(c2cc(Cl)cc(Cl)c2)C1=O
EC50 (Botrytis cinerea; fungal growth, inhibitor; B05.10 wild type; 168 h): 604 ± 286 nM

Cc1cc(C(=O)NC(C)(C)COc2cccc3c2C(N)=NS(=O)(=O)N3)cc(C)n1
revertant ratio (Salmonella typhimurium; Ames test, initial; TA1535; 150 µg/plate, added: rat liver S9; relative to: solvent control): 1.2

O=C(O)c1nn(Cc2ccc(Cl)cc2Cl)c2ccccc12
Emax (Human coronavirus OC43; virus-induced cell killing; MRC-5): 18.4%

CS(=O)(=O)Nc1ncn(-c2cc(F)c(COc3ccc(OS(=O)(=O)F)cc3)c(F)c2)n1
MIC (Mycobacterium tuberculosis; drug-resistant clinical isolate, lineage 2): 0.02 µM

C[C@H]1CN(c2n[nH]c3nc(N[C@H]4CC[C@H](NS(=O)(=O)CCC(F)(F)F)CC4)ncc23)CCO1
remaining binding (Exportin-4 (Homo sapiens, UniProt Q9C0E2); Kinobeads competition, item: XPO4; 20 µM, unit not given; relative to: vehicle): 1.23

N#Cc1c[nH]cc1-c1cccc2c1OC(F)(F)O2
EC50 (Botrytis cinerea; fungal growth, inhibitor; B05.10 wild type; 168 h): 25.9 ± 0.6 nM

CCOC(=O)C1=C[C@@H](OC(CC)CC)[C@H](NC(C)=O)[C@@H](N)C1
plaque reduction (influenza A virus H3N2; rat, plasma of treated rats; 30 mg/kg; relative to: water-treated rats): 65.7%

COc1cc2c(Oc3ccc4[nH]c(C)cc4c3F)ccnc2cc1OCC1(N)CC1
grade 3 T-wave abnormality (paediatric refractory sarcoma patients; 10 mg): 0%

Nc1ccn(C[C@@H](CO)OCP(=O)(O)O)c(=O)n1
infection (Fowlpox virus; viral infection; CEF; 100 µM; relative to: untreated): 67.5% and 52.9% and 47.8%

COc1cc(Nc2ncc(F)c(Nc3ccc4c(n3)NC(=O)C(C)(C)O4)n2)cc(OC)c1OC
IC50 (NMDA receptor phencyclidine site): > 10000 nM

CC[C@H](C)[C@H](NC(=O)[C@H](Cc1ccccc1)NC(=O)[C@H](CCC(=O)O)NC(=O)[C@H](CCCNC(=N)N)NC(=O)[C@H](C)NC(=O)[C@H](C)NC(=O)[C@H](CCC(N)=O)NC(=O)[C@H](CCC(=O)O)NC(=O)[C@H](CCC(=O)O)NC(=O)[C@H](CC(C)C)NC(=O)[C@H](Cc1ccc(O)cc1)NC(=O)[C@H](CO)NC(=O)[C@H](CO)NC(=O)[C@@H](NC(=O)[C@H](CC(=O)O)NC(=O)[C@H](CO)NC(=O)[C@@H](NC(=O)[C@H](Cc1ccccc1)NC(=O)[C@@H](NC(=O)CNC(=O)[C@H](CCC(=O)O)NC(=O)[C@H](C)NC(=O)CCc1c[nH]cn1)[C@@H](C)O)[C@@H](C)O)C(C)C)C(=O)N[C@@H](C)C(=O)N[C@@H](Cc1c[nH]c2ccccc12)C(=O)N[C@@H](CC(C)C)C(=O)N[C@H](C(=O)N[C@@H](CCCNC(=N)N)C(=O)NCC(=O)N[C@@H](CCCNC(=N)N)C(=O)N[C@@H](CCCCNC(=O)COCCOCCNC(=O)COCCOCCNC(=O)CC[C@H](NC(=O)CCCCCCCCCCCCCCCCC(=O)O)C(=O)O)C(=O)NCC(=O)NCC(=O)N[C@@H](CO)C(=O)N[C@@H](CCCCNc1c(NCCCCCN(O)C(=O)CCC(=O)NCCCCCN(O)C(=O)CCC(=O)NCCCCCN(O)C(C)=O)c(=O)c1=O)C(=O)O)C(C)C [zirconium-89 labelled]
tissue uptake (ex vivo gamma counting; rat, stomach; subcutaneous, 3 nmol/kg, 24 h, added: [89Zr]-labelled peptide): 0.22 %ID/g

OC(Cn1cncn1)(Cn1cncn1)c1ccc(F)cc1F
OD600 (Saccharomyces cerevisiae; cell growth; Pdr5 deleted, Cdr1 overexpressed; 2^5.322 µg/mL): 0.832 and 0.887 and 0.902

C[C@@H](O)[C@@H](CO)NC(=O)[C@@H](CCCNC(=N)N)NC(=O)[C@@H]1CCCN1C(=O)[C@@H]1CSSC[C@H](NC(=O)[C@H](Cc2ccccc2)NC(=O)CN2CCN(CC(=O)O)CCN(CC(=O)O)CCN(CC(=O)O)CC2)C(=O)N[C@@H](Cc2ccc(O)cc2)C(=O)N[C@@H](Cc2ccccc2)C(=O)N[C@@H](CCC(N)=O)C(=O)N[C@@H](CC(N)=O)C(=O)N1 [gallium-68 labelled]
tissue uptake (Wistar rat, healthy, Lacrimal gland; intravenous, 8 MBq, 120 min, mean): 0.04 %ID/g

CC(=O)N[C@H]1[C@H]([C@H](O)[C@H](O)CO)OC(C(=O)O)=C[C@@H]1N=C(N)N
EC50 (influenza A virus H3N2; viral cytopathic effect, MTS; MDCK): 400 nM

CCCCCCC(=O)CCCCCC/C=C/C[C@@H](O)[C@H](O)[C@@](N)(CO)C(=O)O
EC50 (Botrytis cinerea; fungal growth, inhibitor; B05.10 wild type; 168 h): 934 ± 34.1 nM

CC(N)C12CC3CC(CC(C3)C1)C2 (stereo not drawn)
EC50 (influenza A virus H3N2; viral cytopathic effect, MTS; MDCK): 200 nM

CO[C@H]1C[C@@H]2CC[C@@H](C)[C@@](O)(O2)C(=O)C(=O)N2CCCC[C@H]2C(=O)O[C@H]([C@H](C)C[C@@H]2CC[C@@H](OC(=O)NCCOCCOCCOCCOCCOCCOCCOCCOCCC(=O)N3CCc4cc(Cn5nc(-c6ccc7oc(N)nc7c6)c6c(N)ncnc65)ccc4C3)[C@H](OC)C2)C[C@@H](O)[C@H](C)/C=C(\C)[C@@H](O)[C@@H](OC)C(=O)[C@H](C)C[C@H](C)/C=C/C=C/C=C/1C
incidence of TRAE (advanced solid tumour patients; intravenous, dose not given, grade ≥3, all doses): 36.8%

CC(C)(C)C(O)(CCc1ccc(Cl)cc1)Cn1cncn1 (stereo not drawn)
EC50 (Botrytis cinerea; fungal growth, inhibitor; B05.10 wild type; 168 h): 131 ± 58.9 nM

COc1cc(C[C@@H](C)N)c(OC)cc1I
IC50 (Plasmodium falciparum; GB4): 10000 nM

CC1(C(=O)Nc2ccc(O)c(Cl)c2Cl)CCCCC1
EC50 (Botrytis cinerea; fungal growth, inhibitor; B05.10 wild type; 168 h): 46.6 ± 23.4 nM

C[C@]12N[C@H](Cc3ccccc31)c1ccccc12
IC50 (Plasmodium falciparum; GB4): 3980 nM

COc1ccc(N2C(=O)N(c3c(C)cccc3Cl)Cc3cnc(Nc4ccc(C5CCN(C)CC5)cc4OC)nc32)nc1
inhibition (IRAK4 (Homo sapiens, UniProt Q9NWZ3); kinase activity; 0.5 µM): 5%
